Assay results from different studies.
Parts stem from different laboratories: compare values within a part only. Changes are numbered by the printed parent chain.
Chain of UniProt Q9NR09 (whole entry, looked up): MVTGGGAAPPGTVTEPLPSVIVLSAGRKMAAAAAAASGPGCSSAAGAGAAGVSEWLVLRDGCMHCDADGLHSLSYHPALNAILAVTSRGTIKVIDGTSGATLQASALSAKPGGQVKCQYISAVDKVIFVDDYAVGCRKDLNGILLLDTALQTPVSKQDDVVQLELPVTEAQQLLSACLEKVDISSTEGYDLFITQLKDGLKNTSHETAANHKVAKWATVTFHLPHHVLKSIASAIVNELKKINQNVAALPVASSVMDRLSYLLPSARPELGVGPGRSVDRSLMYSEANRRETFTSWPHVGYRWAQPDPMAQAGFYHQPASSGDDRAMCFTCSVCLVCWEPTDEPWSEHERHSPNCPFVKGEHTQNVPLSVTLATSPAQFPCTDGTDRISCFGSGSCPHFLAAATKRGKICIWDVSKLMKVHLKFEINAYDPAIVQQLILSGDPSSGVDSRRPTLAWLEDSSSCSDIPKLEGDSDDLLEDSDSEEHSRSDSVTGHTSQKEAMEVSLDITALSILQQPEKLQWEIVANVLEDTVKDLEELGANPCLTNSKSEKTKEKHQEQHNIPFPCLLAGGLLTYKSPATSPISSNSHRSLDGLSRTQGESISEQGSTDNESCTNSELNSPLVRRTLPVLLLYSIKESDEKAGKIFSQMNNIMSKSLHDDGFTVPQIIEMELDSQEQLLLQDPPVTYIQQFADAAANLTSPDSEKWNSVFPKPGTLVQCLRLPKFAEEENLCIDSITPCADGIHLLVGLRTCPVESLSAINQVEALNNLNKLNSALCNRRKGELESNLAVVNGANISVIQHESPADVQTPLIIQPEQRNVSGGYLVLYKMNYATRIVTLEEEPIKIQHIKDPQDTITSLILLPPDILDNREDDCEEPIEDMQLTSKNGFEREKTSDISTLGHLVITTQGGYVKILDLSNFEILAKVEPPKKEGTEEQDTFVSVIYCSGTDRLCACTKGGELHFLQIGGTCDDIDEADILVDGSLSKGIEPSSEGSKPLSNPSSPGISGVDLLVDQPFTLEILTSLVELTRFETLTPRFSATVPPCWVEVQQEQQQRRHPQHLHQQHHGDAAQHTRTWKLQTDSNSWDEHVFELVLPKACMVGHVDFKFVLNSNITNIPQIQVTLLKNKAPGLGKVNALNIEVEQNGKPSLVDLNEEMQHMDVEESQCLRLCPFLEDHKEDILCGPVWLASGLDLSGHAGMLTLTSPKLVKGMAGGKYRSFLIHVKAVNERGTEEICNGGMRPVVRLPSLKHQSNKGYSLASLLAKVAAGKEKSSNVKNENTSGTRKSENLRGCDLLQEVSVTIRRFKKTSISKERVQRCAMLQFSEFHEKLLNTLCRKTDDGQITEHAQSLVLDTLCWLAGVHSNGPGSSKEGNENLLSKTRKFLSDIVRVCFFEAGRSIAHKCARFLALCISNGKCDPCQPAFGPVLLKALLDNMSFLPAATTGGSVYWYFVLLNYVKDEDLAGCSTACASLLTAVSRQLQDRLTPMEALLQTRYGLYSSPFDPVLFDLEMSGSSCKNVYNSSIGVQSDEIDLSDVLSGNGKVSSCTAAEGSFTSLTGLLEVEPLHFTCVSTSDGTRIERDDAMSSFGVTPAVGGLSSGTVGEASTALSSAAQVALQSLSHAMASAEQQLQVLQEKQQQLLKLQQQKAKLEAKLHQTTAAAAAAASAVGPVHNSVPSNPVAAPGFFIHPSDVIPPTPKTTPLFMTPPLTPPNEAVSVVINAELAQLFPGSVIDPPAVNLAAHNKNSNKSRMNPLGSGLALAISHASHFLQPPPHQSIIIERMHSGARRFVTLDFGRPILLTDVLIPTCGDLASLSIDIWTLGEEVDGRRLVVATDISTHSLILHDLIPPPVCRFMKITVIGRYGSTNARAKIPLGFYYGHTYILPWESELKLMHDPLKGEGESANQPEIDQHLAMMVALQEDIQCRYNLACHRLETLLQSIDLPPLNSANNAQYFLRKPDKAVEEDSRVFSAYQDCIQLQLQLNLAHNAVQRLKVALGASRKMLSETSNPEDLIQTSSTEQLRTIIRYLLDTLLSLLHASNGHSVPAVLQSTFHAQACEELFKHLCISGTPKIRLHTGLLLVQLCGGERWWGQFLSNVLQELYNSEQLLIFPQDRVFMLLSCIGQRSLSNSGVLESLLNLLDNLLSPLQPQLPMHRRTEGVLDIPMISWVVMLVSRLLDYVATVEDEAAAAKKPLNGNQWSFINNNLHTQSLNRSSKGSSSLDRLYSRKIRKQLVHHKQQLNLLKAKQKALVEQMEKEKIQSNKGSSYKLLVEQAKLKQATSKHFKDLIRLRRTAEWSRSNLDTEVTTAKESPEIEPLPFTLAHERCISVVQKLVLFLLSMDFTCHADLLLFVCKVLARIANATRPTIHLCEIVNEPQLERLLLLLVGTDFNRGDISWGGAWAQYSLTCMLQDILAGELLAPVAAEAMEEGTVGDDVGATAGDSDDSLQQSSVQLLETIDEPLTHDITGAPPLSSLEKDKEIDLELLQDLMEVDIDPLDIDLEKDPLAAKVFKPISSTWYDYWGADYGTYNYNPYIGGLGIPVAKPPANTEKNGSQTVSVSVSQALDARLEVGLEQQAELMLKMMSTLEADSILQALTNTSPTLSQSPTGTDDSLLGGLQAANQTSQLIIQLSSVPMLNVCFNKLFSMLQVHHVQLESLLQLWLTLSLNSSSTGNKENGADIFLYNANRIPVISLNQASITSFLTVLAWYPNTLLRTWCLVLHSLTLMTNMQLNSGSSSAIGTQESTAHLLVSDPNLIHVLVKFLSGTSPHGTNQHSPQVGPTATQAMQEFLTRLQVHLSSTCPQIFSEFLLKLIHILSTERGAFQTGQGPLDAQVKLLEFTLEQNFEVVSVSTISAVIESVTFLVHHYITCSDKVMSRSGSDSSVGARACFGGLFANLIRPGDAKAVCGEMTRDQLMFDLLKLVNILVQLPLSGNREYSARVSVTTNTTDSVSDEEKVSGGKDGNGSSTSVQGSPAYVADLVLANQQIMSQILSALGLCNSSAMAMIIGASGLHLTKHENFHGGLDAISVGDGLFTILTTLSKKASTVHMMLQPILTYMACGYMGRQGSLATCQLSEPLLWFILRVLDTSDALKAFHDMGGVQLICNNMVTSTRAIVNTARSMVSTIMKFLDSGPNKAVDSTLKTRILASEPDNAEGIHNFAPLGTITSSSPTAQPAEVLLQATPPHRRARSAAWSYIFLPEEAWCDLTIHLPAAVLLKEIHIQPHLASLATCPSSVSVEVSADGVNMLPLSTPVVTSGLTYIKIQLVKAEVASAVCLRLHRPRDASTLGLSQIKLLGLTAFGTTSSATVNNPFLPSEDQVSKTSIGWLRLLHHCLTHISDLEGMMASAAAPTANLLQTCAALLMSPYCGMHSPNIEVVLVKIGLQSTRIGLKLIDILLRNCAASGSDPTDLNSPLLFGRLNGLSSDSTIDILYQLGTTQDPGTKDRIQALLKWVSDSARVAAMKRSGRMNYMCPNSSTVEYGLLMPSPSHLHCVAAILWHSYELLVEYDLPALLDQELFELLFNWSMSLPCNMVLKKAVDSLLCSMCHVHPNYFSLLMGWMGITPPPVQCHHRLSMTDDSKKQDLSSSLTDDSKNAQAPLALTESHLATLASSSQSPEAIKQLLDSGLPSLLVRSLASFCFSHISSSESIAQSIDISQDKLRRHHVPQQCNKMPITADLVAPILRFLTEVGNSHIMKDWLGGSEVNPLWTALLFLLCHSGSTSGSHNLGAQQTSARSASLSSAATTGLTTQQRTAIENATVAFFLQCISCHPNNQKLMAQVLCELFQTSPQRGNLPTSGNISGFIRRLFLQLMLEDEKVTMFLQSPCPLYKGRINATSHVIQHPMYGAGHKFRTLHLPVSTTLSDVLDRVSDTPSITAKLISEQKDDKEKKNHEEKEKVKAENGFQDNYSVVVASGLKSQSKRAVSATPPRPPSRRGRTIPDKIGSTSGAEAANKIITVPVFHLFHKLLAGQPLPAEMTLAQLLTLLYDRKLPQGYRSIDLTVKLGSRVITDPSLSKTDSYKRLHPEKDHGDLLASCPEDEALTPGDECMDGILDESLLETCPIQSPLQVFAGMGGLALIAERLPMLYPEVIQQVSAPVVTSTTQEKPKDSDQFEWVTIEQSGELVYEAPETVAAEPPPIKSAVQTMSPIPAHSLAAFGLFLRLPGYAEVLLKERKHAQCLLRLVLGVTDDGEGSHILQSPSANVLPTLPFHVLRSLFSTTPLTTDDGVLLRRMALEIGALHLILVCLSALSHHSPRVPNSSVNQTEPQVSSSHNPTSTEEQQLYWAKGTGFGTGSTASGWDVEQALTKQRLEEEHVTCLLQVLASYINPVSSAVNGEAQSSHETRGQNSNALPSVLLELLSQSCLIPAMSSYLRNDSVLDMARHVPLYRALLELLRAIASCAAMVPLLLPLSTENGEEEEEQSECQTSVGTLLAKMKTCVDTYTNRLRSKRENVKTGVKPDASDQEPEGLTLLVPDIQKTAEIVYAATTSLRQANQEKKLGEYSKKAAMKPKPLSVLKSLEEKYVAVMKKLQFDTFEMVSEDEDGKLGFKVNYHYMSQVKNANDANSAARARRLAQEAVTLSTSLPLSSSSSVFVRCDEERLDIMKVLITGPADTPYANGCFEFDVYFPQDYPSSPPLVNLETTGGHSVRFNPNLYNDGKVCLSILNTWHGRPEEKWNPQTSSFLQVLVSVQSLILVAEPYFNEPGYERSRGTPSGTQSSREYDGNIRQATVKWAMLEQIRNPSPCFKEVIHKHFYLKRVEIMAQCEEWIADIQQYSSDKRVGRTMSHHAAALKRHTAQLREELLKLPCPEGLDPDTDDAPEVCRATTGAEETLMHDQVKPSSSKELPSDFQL
Chain of UniProt Q9NPD8 (whole entry, looked up): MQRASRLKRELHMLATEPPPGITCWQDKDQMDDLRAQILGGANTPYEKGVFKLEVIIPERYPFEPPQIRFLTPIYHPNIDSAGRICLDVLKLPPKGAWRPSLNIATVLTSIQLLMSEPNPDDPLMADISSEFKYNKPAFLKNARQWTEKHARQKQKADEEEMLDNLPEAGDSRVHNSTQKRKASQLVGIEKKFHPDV

Set 1
Target: Sal-like protein 4, full length isoform B (SALL4, Homo sapiens, UniProt Q9UJQ4-2, residues 1-616)
Method: universal PBM
Form: double-stranded DNA, one strand shown
Medium: in vitro
Tested at: not given
Setting: 8-mer, flanks averaged, mean of replicates
Direction: higher = stronger binding
Endpoint: E-score
CCTGCATC: -0.158
AATCTAAG: 0.131
AGAATTTC: -0.0441
AGGTAGCC: -0.254
ACATAGCC: -0.0532
TGGGTACA: -0.102
GCCTGATA: -0.0825
ACAGGCGC: -0.249
ATATCAGA: 0.278
ACTCACCA: 0.0239
CAACCGCG: -0.151
GGGCTTAC: -0.186
AGGTCGCC: -0.258
GTAATAGA: 0.187
GAACACCC: -0.246
CCGTCACA: -0.245
ACCGCGTC: -0.161
GGCTGCAA: -0.0991

Set 2
Sequence: KEQLEKHNDICAICYQDMKSAVITPCSHFFHAGCLKKWLYVQETCPLCHCHLKNSSQLP (RNF145 RING domain (UniProt Q96MT1))
Method: yeast two-hybrid
Medium: yeast
Setting: mostly zero background
Reference: not given
Direction: higher = stronger interaction
Endpoint: lacZ reporter activity
UBE2G1 UBC core domain (UniProt P62253): 0
UBE2M UBC core domain (UniProt P61081): 0
UBE2S UBC core domain (UniProt Q16763): 0
UBE2T UBC core domain (UniProt Q9NPD8): 0
UBE2D1 UBC core domain (UniProt P51668): 0
BIRC6 UBC core domain (UniProt Q9NR09): 0
UBE2E3 UBC core domain (UniProt Q969T4): 0
UBE2L3 UBC core domain (UniProt P68036): 0
UBE2C UBC core domain (UniProt O00762): 0

Set 3
Target: RNA binding protein fox-1 homolog 2, RRM domain, GST-SBP tag (RBFOX2, Homo sapiens, UniProt O43251-10, residues 100-194)
Method: RNA Bind-n-Seq
Form: RNA
Medium: in vitro
Tested at: 365 nM
Setting: natural RNA segment, single round, ends assumed
Reference: no-protein control
Direction: higher = stronger binding
Endpoint: RBNS enrichment (R)
Shared flanks, not repeated: GGGAGUUCUACAGUCCGACGAUC … UGGAAUUCUCGGGUGCCAA
Target sequence (chain): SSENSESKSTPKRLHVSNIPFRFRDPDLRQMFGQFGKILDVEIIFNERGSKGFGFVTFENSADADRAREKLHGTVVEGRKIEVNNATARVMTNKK
AUCUGUGAGAGACUGACUAUAGCAGAAGCGGAUUCAAAGAAGACAGACCUUGACCAAAGAUGCUGAAAUACAGUGUUGGGAUCCUUGUACUCUGGAACCAUGCCAUCACU: 0.279
AGUUUAAGUUAUAGGGCAUUUGGCUCAAAUUUUAAAAGGCCUUUUGUUUACCUAUAUUUCUGGAGGCUCCUGUAUUCUAGAACCCAAUCUCUCACCUGCUUGGUUGCAAG: 0.34
GCUGGGCUACGCGGUGAGGCCCUGUCUCACAGAGGCAGGGAGAGUGUUUUACUGGAAAAGCUGCAGUUGAUCUCAAAUUGAGCAGCGAGCUUUCAUGCUCAGUUGGAAUC: 0.313
GAAUGCCGAGUGUCAUAAGAAAUUGCAUGCUAUCUUCACUCACAAUCCUGCCCUUCCCUCACAGAGCUGGAACUCCAAGCCUGGCCCCAAAGACCCUCCAUCACGAAGAG: 41.7
AGGAAAGUUAAAAACAAAUAUGCACAGUACAAAAUAGAUCUGUGGCUUUUUUUUUUUAAAGUAAGAAUAGCUUGUUAGUAUAUCAAUGUUCAUGGCUAAUGUUAUCUCAU: 0.601
ACACCAUCACAGCCCCCGGAGACCUGCGGAGGAUCUACUUAUGAGCUAGCUGUCUAGGCAGGCCUUGCCUCGAGCAACGCCCCUGCCCAGCCUCUGUGACAGUGACUCCC: 0.256
UGUGCCUUACUCAUAGGGCUCAGGCUCCUGGCCUCUGGCUUCCUGCUUCUGGAUUCUCACCUUCACAGGGAGUUUCUUCCCGCCUCGGCCUUCUGGACAUGUCCUCUGUC: 0.208
AAAAAACCUAUUUUAUGCUUUGUUAAAAUUAUGGUGUCACUUAGAUUGACUUUAGUUGACUGCACUAUAUAAUAUAGAACUAUGAAUAUGUAGAAUAACAUGAAAAAUUG: 0.452
GCGCCUCCUGCGGCCCCUCCAGUGCUGUCCCUCCGCUGUCUAGCAGCCCUAGGGGCGUGUCAGCCGCACCUCUGGGACGGGCCCUUCCUUGCGGUGCUGCCGUCCUUUUG: 0.369
UGUUCCUCCACACAUGUAAAGGCACAGUGGCUCCGUGUGUUAAAAAACAGCUGUAUUUUAUGUAUGCUUUACUGAUAAGUGUGCCAAUAAUAAACUGUGUUAAUGACCAA: 0.244
UGACUGUGGGUGGACCAUCUCCCCUCUCCGAGCUGUAGACAAAGGAGCUUAGACGCCACAUCAGGGUAAUGAGGGGGAUCACGGAGAAUCAAAACCCUCAGAGGGUCCUG: 0.418
UGAGUCCCGAGACCAGUUGGGUACCUCUCUAUGCGAACCAGAGACAUUUCUGGAUCCAGGCCAGGUGAAGAUUAGGGCCAGGAAGCCUGAGCCCCCGGGGCCUCAAGGUA: 0.323

Set 4
Target: ABI1, truncated, D143A, DHFR fusion (Arabidopsis thaliana, UniProt P49597)
Method: DHFR PCA, dose-response
Medium: yeast
Setting: Hill fit, mean, not affinity
Together with: (+)-ABA, dose series
Direction: lower = more sensitive
Endpoint: ABA EC50
Parent: PYL1, truncated, DHFR fusion (Arabidopsis thaliana, UniProt Q8VZS8); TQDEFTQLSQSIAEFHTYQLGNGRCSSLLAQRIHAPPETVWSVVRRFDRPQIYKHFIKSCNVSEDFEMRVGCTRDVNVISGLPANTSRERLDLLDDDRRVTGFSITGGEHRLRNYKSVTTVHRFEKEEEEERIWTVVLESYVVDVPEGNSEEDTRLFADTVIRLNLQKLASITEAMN
L29N: 6.64 µM
E139A: 47 µM
V136Q: 158 µM
S59F: 26.3 µM
N22K: 4.14 µM
T6M: 5.12 µM
T86I: 94.6 µM
V62D: 735 µM
P37G: 106 µM
V118A: 89.4 µM
L94R: 312 µM
E152P: 16.9 µM
Q19P: 3.55 µM
E64R: 3.51 µM
E64L: 5.04 µM
T160E: 340 µM
D95E: 60.1 µM
E129W: 5.2 µM
S26D: 59.2 µM
D159T: 44.8 µM

Set 5
Target: CCNE1, cyclin fold, Cln2 fusion (human)
Method: yeast growth competition, sequencing
Medium: yeast
Setting: strong parent motif
Reference: not given
Direction: higher = stronger binding
Endpoint: normalised enrichment score
Parent: PKMYT1 docking peptide (human); SFEPRNLLSLFED
F2C: 0.887
D13A: 2.45
N6K: 0.795
S1T: 2.26
L7F: 1.22
L10T: 1.45
E12W: 1.17
R5Y: 0.632
L7E: -0.44
E3R: 2.67
F11Q: 0.201
S9P: 2.42
D13P: 1.97
L10E: 2.32
N6Y: 0.56
D13W: 0.983
P4F: 0.489
R5W: 1.12
L7K: 0.217
P4D: 0.208
E12C: 2.44
N6E: 0.751
L8D: -0.564
N6M: 0.215
D13F: 2.54

Set 6
Target: CEBPE, bZIP domain (human)
Method: DHFR protein complementation
Medium: yeast
Setting: single substitutions, most at no-binding floor
Reference: wild-type JUN-FOS pair
Direction: higher = stronger binding
Endpoint: binding fitness
Parent: JUN, bZIP domain (human); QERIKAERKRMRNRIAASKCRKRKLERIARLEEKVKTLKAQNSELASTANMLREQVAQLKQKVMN; partner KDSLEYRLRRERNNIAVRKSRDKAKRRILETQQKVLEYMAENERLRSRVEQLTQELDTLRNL
I28F: -1.27 natural log
L59W: -0.973 natural log
A29E: -1.14 natural log
T48I: -1.17 natural log
L31S: -1.35 natural log
K34W: -1.11 natural log
R53V: -1.09 natural log
T48G: -1.47 natural log
M51A: -0.976 natural log
S47K: -0.824 natural log
K39L: -1.26 natural log
R30F: -1.18 natural log
E54M: -1.26 natural log
Q55R: -1.27 natural log
L45C: -1.47 natural log
A49T: -1.43 natural log
S47G: -1.19 natural log
L31Y: -1.47 natural log
E54S: -1.25 natural log
K34G: -1.37 natural log
